Measured values of several laboratories.
Parts stem from different laboratories: compare values within a part only. Several values in a cell are separate wells, animals, samples, runs or records.
Sequence of UniProt P34947 (whole entry, looked up): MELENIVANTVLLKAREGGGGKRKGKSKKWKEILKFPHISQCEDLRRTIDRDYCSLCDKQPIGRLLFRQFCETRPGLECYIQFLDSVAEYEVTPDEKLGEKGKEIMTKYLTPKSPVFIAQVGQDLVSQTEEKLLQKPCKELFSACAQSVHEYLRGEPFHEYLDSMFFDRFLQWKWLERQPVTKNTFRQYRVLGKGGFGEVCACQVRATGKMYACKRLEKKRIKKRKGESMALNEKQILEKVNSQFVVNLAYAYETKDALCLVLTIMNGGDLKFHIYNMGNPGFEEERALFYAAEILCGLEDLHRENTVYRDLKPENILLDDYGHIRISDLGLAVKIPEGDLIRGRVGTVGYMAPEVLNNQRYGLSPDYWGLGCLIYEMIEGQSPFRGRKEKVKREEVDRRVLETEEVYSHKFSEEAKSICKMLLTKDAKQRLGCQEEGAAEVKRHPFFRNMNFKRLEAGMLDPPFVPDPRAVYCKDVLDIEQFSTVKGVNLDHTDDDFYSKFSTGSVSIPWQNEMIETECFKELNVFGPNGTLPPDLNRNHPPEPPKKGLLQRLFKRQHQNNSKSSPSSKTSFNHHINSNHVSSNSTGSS
Sequence of UniProt O14965 (whole entry, looked up): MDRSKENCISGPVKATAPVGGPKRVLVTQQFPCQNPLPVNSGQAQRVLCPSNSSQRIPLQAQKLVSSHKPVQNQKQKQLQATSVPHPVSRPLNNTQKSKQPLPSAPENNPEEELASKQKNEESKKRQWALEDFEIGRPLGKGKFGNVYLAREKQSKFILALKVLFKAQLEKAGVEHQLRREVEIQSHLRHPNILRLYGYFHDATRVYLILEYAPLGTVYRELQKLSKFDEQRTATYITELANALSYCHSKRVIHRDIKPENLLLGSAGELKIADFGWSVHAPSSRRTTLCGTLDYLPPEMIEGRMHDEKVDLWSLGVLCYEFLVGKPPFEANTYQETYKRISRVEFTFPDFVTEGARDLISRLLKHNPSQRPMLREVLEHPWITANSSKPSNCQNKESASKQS
Sequence of UniProt P53779 (whole entry, looked up): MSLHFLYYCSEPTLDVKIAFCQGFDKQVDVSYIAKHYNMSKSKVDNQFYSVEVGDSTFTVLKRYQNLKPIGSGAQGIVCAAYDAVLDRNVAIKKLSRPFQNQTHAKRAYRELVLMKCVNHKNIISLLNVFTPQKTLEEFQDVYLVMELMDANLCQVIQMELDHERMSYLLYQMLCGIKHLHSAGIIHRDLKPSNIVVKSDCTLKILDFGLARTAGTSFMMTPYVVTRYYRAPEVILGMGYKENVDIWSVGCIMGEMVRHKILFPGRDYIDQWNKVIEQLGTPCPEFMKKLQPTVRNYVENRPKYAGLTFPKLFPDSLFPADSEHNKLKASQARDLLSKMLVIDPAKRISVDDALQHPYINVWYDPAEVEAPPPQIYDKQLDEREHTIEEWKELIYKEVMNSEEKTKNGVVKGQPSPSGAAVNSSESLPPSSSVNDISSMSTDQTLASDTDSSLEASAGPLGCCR
Sequence of UniProt P50613 (whole entry, looked up): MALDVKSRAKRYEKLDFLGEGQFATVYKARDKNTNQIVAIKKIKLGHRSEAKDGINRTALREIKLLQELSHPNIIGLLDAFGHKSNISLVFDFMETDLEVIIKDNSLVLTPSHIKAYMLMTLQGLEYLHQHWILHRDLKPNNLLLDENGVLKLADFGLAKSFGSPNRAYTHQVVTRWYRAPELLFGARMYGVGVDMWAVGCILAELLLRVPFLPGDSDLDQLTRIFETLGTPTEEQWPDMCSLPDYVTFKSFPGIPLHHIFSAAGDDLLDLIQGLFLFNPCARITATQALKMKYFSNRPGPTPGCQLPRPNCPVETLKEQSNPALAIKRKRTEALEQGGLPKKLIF
Sequence of UniProt Q16513 (whole entry, looked up): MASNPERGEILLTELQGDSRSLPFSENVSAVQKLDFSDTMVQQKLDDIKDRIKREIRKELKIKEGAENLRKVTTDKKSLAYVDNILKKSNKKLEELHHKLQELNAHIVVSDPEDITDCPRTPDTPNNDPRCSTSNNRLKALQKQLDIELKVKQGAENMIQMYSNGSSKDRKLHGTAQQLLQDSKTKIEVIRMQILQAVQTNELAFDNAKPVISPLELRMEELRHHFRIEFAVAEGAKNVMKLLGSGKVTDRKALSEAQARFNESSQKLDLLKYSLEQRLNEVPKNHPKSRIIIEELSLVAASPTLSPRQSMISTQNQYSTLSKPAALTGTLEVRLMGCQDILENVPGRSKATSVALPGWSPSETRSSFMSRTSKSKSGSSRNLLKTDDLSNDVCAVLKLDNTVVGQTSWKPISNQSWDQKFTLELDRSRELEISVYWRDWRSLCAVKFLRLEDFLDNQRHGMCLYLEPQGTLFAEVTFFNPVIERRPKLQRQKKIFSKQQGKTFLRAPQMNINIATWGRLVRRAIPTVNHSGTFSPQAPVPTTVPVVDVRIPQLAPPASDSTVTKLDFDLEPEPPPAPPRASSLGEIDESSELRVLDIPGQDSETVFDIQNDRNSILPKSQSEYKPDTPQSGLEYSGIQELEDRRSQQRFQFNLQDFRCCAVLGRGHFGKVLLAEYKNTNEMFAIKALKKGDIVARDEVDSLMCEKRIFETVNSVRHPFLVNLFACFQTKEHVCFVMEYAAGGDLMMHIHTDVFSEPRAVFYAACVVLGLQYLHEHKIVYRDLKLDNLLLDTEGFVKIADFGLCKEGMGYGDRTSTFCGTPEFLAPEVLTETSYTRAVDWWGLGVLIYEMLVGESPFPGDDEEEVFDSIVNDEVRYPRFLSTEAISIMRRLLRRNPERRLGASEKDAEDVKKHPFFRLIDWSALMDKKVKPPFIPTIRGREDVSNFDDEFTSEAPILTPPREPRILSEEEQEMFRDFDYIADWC
Sequence of UniProt P19784 (whole entry, looked up): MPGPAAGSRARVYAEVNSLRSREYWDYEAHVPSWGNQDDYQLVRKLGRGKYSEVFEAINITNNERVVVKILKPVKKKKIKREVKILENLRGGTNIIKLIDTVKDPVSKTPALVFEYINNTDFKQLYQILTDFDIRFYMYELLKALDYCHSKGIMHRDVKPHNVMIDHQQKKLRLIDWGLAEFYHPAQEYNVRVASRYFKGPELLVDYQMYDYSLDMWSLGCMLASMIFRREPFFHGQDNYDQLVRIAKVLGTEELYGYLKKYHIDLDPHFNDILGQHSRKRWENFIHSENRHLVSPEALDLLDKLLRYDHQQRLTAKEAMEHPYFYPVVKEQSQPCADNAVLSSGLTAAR
Sequence of UniProt Q8TDC3 (whole entry, looked up): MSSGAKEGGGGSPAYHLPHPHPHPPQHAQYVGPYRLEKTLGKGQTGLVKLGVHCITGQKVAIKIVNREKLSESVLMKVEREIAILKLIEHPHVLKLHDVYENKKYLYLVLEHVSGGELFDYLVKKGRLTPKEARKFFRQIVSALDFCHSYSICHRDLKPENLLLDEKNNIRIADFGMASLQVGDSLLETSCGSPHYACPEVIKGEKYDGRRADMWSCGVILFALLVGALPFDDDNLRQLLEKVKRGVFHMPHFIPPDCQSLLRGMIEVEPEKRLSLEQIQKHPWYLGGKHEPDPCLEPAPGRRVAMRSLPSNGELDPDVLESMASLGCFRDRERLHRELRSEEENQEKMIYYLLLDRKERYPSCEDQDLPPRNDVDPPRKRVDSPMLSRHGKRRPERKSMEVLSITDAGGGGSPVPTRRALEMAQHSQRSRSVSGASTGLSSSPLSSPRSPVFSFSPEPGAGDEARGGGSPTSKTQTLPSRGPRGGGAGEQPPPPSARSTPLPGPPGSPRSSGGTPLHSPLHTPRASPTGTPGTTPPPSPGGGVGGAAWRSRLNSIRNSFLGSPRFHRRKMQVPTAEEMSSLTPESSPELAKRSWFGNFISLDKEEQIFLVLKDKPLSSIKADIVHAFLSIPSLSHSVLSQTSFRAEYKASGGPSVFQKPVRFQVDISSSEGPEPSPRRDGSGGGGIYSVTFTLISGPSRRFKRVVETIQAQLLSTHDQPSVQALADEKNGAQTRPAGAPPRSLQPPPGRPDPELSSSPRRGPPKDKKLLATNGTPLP
Sequence of UniProt P41279 (whole entry, looked up): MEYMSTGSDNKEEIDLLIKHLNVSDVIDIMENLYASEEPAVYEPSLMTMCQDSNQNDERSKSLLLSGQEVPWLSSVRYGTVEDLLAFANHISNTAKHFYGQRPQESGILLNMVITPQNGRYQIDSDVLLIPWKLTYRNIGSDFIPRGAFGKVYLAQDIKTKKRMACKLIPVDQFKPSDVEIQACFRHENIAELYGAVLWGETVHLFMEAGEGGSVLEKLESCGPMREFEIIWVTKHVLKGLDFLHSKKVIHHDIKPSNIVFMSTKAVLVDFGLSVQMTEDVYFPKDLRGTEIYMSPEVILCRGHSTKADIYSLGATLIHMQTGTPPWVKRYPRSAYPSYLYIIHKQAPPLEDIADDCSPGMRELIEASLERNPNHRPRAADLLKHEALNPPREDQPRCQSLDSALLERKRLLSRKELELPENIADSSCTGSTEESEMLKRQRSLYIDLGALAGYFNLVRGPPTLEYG
Sequence of UniProt Q96NX5 (whole entry, looked up): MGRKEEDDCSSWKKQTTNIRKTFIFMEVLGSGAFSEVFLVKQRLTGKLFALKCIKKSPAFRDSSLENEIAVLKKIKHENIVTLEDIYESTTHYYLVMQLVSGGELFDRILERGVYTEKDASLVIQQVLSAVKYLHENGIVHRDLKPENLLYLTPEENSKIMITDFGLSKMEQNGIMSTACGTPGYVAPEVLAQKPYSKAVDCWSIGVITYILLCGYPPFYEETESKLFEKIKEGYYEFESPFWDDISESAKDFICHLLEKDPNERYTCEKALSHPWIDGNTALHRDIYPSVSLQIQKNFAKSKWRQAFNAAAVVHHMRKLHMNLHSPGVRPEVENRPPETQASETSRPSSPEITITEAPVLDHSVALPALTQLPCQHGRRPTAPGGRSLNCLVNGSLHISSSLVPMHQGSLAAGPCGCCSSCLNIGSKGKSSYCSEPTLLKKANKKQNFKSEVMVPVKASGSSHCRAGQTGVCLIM

Sample 1
SMILES: Cc1ccc(NC(=O)c2ccc(CN3CCN(C)CC3)cc2)cc1Nc1nccc(-c2cccnc2)n1
Effect on: enzyme activity
Mode: inhibitor
Concentration: 0.5 µM
Relative to: control
Quantity: remaining activity
target = PTK2B (Homo sapiens, UniProt Q14289); value = 101%
target = GRK5 (Homo sapiens, UniProt P34947); value = 95%
target = MAP3K8 (Homo sapiens, UniProt P41279); value = 92.7%
target = CSNK2A2 (Homo sapiens, UniProt P19784); value = 94.5%
target = BRSK1 (Homo sapiens, UniProt Q8TDC3); value = 98.2%
target = ROS1 (Homo sapiens, UniProt P08922); value = 85.9%
target = Aurora kinase A (AURKA, Homo sapiens, UniProt O14965); value = 98.2%
target = CDK7 (Homo sapiens, UniProt P50613); value = 101%
target = MAPK10 (Homo sapiens, UniProt P53779); value = 90.8%
target = PKN2 (Homo sapiens, UniProt Q16513); value = 96.9%
target = CAMK1G (Homo sapiens, UniProt Q96NX5); value = 98.4%

Sample 2
Cell line: normal-adjacent organoid sample F
Technique: CellTiter-Glo
Concentration: 1 µM
Setting: replicate mean
Relative to: DMSO
Quantity: viability
SMILES = CCCCN(Cc1ccccc1)C(=O)c1ccc(S(=O)(=O)Nc2ccccc2)cc1; value = 112%
SMILES = C[C@H](c1ccc(F)cc1)N(Cc1ccc(Cl)c(C(=O)O)c1)C(=O)c1cnc2ccccc2c1; value = 99.5%
SMILES = N#CC1(c2ccccn2)CCN(Cc2cc(C(=O)O)c(=O)n3ccccc23)CC1; value = 95.8%
SMILES = CN(C)[C@@H]1CCN(c2cc(-c3ccccc3)nc3ccnn23)C1; value = 107%
SMILES = CO[C@H]1CC[C@H](CNc2ccc(S(=O)(=O)NC(=O)c3ccc(N4CCN(CC5=C(c6ccc(Cl)cc6)CC(C)(C)CC5)CC4)cc3Oc3cnc4[nH]ccc4c3)cc2[N+](=O)[O-])CC1; value = 66.5%
SMILES = Cc1c(NC(=O)c2cc(C(N)=O)nc3cc(F)ccc23)c(C(F)(F)F)nn1Cc1ccc(C#N)cc1; value = 29.1%
SMILES = O=C(NNS(=O)(=O)c1ccccc1F)c1cc(F)cc(-c2ccccn2)c1; value = 70.4%
SMILES = CNC(=O)c1cc(C(=O)N[C@H]2[C@@H]3COC[C@@H]32)cc2c1O[C@@H](CF)[C@@H]2c1ccccc1; value = 104%
SMILES = Nc1nc(NCc2ccccc2)nc(-c2cccc(CO)c2)n1; value = 141%
SMILES = Cn1cncc1[C@@](O)(COc1ccc(C#N)cc1-c1ccc(OC(F)(F)F)cc1)c1ccc(C#N)cc1; value = 107%
SMILES = Cn1nc(C(F)(F)F)cc1-c1cnc(N2CCc3cc(S(=O)(=O)Nc4c(F)cc(Cl)cc4F)cc(N4CCCC4=O)c32)nc1; value = 98.8%
SMILES = Cc1noc([C@H]2C[C@@H](c3ccc(C(F)(F)F)cc3)CN(C(=O)N3CCS(=O)(=O)C3)C2)n1; value = 100%
SMILES = CN(C)C(=O)Cn1cc(-c2ccc(-c3cncc4ccccc34)cc2)cn1; value = 111%
SMILES = CN1CCN(C(=O)C(C)(C)c2ccc(C(=O)Nc3cn4cc(-c5cc(C(C)(C)C)cc(C(C)(C)C)c5)ccc4n3)cc2)CC1; value = 87.2%
SMILES = C[C@H](c1cccc(C#N)c1)n1cc(Cl)cc(C(N)=O)c1=N; value = 136%

Sample 3
Cell line: mouse MPNST tumor cells
Technique: high-content nuclear imaging
Refers to: cell number
Concentration: 10 µM
Time: 12 h
Setting: mean of 2 replicates
Relative to: plate mean
Reading: higher = more cells
Quantity: nuclei count
SMILES = C=C(C)[C@@H]1CC[C@]2(C(=O)O)CC[C@]3(C)[C@H](CC[C@@H]4[C@@]5(C)CC[C@H](O)C(C)(C)[C@@H]5CC[C@]43C)[C@@H]12; value = 2.31 z-score
SMILES = CC(C)n1c(=O)n(C(=O)NC2CC3CCC(C2)N3C)c2ccccc21 (stereo not drawn); value = 4.51 z-score
SMILES = Nc1nccc(/C=C/c2ccccc2)n1; value = -2.1 z-score
SMILES = CN(C)CCC=C1c2ccccc2COc2ccccc21; value = 5.08 z-score
SMILES = NC(=O)c1ncn([C@@H]2O[C@H](CO)[C@@H](O)[C@H]2O)n1; value = -0.172 z-score and 0.442 z-score and 0.241 z-score
SMILES = CC(C[N+](C)(C)C)OC(N)=O (stereo not drawn); value = 1.43 z-score
SMILES = CN1CCC(=C2c3ccccc3CCc3sccc32)CC1; value = 1.29 z-score
SMILES = Cc1csc(S(=O)(=O)N(CC(C)C)c2cc3c(cc2OCc2ccc(C(=O)O)cc2)CCC3)n1; value = 0.214 z-score
SMILES = O=C(c1cccc(Br)c1)N1CCC(N2CCCC2)CC1; value = 0.224 z-score
SMILES = CCn1c(-c2nonc2N)nc2cnc(Oc3cccc(NC(=O)c4ccc(OCCN5CCOCC5)cc4)c3)cc21; value = -6.21 z-score
SMILES = O=C(O)c1cc(=O)c2c(Cl)cc(Cl)cc2[nH]1; value = 0.471 z-score
SMILES = COc1ccc(S(=O)(=O)Nc2cccnc2Nc2ccc(O)cc2)cc1; value = -4.89 z-score
SMILES = NS(=O)(=O)c1cc2c(cc1Cl)NC(C1CC3C=CC1C3)NS2(=O)=O (stereo not drawn); value = 1.22 z-score
SMILES = CN1c2ccc([N+](=O)[O-])cc2N=C(c2ccc(C(=O)O)cc2)c2cc3c(cc21)C(C)(C)CCC3(C)C; value = 2.98 z-score
SMILES = O=C(NCCO)c1cc(C(=O)NCCO)cc(C(=O)NCCO)c1; value = 1.07 z-score
SMILES = CC(C(=O)O)c1ccc(-c2ccccc2)c(F)c1 (stereo not drawn); value = 0.897 z-score and 0.545 z-score
SMILES = CN(c1nccc(=O)[nH]1)C1CCN(c2nc3ccccc3n2Cc2ccc(F)cc2)CC1; value = 1.51 z-score
SMILES = O=C(NNC(=O)c1ccc(CNS(=O)(=O)c2ccc(F)c(Cl)c2)cc1)c1ccccc1; value = 3.55 z-score

Further values, each from its own experiment
SMILES = COc1cc(C(=O)OCCCN2CCCN(CCCOC(=O)c3cc(OC)c(OC)c(OC)c3)CC2)cc(OC)c1OC; test = von Frey test; system = mouse, STZ diabetic neuropathy; setting = subcutaneous, 30 mg/kg, second of three doses, 3 h; quantity = paw withdrawal frequency; value = 0.29 fraction of stimuli and 0.15 fraction of stimuli and 0.13 fraction of stimuli and 0.44 fraction of stimuli and 0.12 fraction of stimuli
